Experimental data from different studies.
Compare with care: the assays were run in different laboratories. ± gives the spread as reported.
Thyrotropin-releasing hormone receptor: Thyrotropin-releasing hormone receptor (Mus musculus, UniProt P21761)
UniProt P21761, sequence (whole entry, looked up): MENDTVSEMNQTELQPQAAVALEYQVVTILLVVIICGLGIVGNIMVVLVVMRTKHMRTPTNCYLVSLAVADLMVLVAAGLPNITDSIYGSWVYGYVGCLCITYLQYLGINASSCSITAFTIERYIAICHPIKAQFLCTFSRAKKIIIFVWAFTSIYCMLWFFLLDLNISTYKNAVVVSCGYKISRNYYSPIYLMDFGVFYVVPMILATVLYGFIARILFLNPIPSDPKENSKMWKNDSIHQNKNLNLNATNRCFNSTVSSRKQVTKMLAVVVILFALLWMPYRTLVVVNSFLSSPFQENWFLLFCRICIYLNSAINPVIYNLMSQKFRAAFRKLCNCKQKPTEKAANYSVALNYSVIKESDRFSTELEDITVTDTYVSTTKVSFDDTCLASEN
PTH1R: Parathyroid hormone/parathyroid hormone-related peptide receptor (PTH1R, Homo sapiens, UniProt Q03431)
RARA: Retinoic acid receptor alpha (RARA, Homo sapiens, UniProt P10276)
NR1H2 ligand-binding domain: Oxysterols receptor LXR-beta, ligand-binding domain (NR1H2, Homo sapiens, UniProt P55055)
UniProt P55055, sequence (whole entry, looked up): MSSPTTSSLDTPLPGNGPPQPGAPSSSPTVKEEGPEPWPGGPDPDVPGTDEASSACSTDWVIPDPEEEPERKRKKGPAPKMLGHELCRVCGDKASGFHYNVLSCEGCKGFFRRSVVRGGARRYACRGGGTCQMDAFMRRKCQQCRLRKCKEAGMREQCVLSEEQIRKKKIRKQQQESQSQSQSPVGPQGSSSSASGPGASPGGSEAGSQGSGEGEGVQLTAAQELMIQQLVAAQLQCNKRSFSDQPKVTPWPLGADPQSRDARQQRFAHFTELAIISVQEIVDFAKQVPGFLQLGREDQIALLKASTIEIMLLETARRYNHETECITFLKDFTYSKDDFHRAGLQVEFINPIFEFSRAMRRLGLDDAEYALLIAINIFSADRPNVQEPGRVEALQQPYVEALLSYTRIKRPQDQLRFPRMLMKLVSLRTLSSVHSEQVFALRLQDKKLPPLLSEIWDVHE
FFAR3: Free fatty acid receptor 3 (FFAR3, Homo sapiens, UniProt O14843)
UniProt O14843, sequence (whole entry, looked up): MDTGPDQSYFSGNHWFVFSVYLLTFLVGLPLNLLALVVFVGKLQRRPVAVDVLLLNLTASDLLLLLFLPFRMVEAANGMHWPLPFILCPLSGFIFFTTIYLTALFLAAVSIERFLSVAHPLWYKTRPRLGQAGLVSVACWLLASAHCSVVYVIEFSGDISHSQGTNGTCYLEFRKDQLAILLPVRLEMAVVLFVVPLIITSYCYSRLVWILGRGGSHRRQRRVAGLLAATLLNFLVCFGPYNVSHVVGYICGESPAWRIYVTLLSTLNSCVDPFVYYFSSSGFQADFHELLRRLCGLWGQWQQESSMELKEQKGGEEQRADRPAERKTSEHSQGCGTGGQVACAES
UniProt P41149, sequence (whole entry, looked up): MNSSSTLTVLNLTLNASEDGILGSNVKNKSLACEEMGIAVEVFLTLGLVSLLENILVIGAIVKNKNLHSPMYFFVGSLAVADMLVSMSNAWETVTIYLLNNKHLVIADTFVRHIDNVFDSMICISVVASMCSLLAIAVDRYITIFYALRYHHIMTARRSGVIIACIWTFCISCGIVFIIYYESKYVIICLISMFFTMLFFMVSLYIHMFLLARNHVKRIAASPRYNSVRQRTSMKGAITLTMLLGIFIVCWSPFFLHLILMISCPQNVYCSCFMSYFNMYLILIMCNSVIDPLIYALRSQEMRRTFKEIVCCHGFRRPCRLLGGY
UniProt P54764, sequence (whole entry, looked up): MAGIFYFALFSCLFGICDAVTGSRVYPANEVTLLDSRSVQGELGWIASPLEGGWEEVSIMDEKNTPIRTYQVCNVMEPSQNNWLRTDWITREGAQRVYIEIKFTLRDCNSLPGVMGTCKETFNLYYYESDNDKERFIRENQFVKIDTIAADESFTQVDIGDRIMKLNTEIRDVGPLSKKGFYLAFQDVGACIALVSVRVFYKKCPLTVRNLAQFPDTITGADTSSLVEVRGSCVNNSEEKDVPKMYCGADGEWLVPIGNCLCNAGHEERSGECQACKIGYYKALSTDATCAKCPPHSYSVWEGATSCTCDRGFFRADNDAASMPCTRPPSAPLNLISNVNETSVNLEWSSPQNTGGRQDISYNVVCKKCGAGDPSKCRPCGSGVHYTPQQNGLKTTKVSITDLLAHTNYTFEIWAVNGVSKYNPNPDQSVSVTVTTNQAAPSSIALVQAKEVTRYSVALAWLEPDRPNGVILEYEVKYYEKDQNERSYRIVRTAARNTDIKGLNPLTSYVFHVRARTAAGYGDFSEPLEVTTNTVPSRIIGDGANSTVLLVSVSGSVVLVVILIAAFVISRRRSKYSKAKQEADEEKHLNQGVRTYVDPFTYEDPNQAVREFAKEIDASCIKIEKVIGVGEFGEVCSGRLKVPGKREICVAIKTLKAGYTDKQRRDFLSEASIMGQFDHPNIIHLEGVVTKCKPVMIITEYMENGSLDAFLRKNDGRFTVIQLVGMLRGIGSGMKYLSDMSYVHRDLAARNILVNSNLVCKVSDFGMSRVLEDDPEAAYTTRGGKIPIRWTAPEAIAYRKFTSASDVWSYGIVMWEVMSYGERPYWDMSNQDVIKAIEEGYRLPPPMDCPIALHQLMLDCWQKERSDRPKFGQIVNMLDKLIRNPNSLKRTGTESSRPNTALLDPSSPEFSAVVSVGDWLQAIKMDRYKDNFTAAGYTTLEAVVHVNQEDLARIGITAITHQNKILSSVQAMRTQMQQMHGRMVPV
UniProt P30969, sequence (whole entry, looked up): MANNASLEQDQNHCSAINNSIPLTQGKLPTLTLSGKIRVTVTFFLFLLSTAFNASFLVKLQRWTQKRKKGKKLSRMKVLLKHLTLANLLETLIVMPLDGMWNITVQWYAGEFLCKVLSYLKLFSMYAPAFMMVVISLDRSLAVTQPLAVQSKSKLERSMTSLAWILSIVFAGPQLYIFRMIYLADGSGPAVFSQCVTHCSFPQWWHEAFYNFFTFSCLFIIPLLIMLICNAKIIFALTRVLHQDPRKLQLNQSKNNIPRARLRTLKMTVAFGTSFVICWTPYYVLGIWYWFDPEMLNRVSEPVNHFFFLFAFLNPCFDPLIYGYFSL
UniProt Q6W5P4, sequence (whole entry, unmodified, looked up): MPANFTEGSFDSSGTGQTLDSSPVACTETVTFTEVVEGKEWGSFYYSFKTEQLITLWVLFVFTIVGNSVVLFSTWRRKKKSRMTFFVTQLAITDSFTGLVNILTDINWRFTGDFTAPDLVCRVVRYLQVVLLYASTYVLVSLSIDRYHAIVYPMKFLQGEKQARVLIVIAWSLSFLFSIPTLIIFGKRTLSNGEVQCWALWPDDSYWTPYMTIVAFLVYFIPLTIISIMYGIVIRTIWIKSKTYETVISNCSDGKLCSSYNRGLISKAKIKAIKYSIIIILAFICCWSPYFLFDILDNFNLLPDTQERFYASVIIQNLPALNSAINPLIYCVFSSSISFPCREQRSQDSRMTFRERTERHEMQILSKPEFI
UniProt P43119, sequence (whole entry, looked up): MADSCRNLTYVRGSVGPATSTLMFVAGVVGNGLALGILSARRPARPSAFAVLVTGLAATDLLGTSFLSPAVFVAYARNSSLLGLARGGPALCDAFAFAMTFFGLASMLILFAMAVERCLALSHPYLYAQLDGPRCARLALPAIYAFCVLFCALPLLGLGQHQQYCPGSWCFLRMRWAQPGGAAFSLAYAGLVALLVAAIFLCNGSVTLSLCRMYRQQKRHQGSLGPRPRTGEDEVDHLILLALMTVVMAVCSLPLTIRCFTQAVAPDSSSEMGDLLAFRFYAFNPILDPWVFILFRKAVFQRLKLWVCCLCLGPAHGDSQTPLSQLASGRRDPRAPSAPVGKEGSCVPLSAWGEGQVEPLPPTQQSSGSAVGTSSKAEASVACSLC

SMILES | target or system | assay | test system | setting | endpoint | result
CSCC[C@H](NC(=O)[C@H](CC(C)C)NC(=O)[C@H](Cc1cnc[nH]1)NC(=O)CNC(=O)[C@@H](NC(=O)[C@H](C)NC(=O)[C@H](Cc1c[nH]c2ccccc12)NC(=O)[C@H](CCC(N)=O)NC(=O)[C@H](CC(N)=O)NC(=O)CNC(=O)[C@H](CC(C)C)NC(=O)[C@H](CCCN=C(N)N)NC(=O)[C@H](CCC(N)=O)NC(=O)[C@@H]1CCC(=O)N1)C(C)C)C(N)=O | ERBB3 (Homo sapiens, UniProt P21860) | receptor phosphorylation, inhibitor, Western blot | H2087 | 3 min | EC50 | 0.0514 ± 0.0073 µM
N=C(N)NCCC[C@@H]1NC(=O)[C@H](CCCCNC(=O)CNC(=O)CNC(=O)CNC(=O)CC[C@H](NC(=O)CNC(=O)CNC(=O)CNC(=O)CN2CCN(CC(=O)O)CCN(CC(=O)O)CCN(CC(=O)O)CC2)C(=O)NCC(=O)NCC(=O)NCC(=O)NCCCC[C@@H]2NC(=O)[C@@H](Cc3ccccc3)NC(=O)[C@H](CC(=O)O)NC(=O)CNC(=O)[C@H](CCCNC(=N)N)NC2=O)NC(=O)[C@@H](Cc2ccccc2)NC(=O)[C@H](CC(=O)O)NC(=O)CNC1=O [indium-111 labelled] | – | – | female athymic nu/nu mice, kidney | intravenous, 72 h | tissue uptake | 1.48 ± 0.14 %ID/g
CCn1cnc(C[C@H](NC(=O)c2cnc(C)cn2)C(=O)N2CCC[C@H]2C(N)=O)c1 | Thyrotropin-releasing hormone receptor | calcium signal, agonist, fluorescence | – | – | EC50 | 2.81 µM
CC[C@H](C)[C@H](NC(=O)[C@H](CO)NC(=O)[C@H](CCCCN)NC(=O)CNC(=O)[C@H](CCCCN)NC(=O)[C@H](CC(=O)O)NC(=O)[C@H](Cc1c[nH]cn1)NC(=O)[C@H](CC(C)C)NC(=O)[C@H](CC(C)C)NC(=O)[C@H](CCC(N)=O)NC(=O)[C@H](Cc1c[nH]cn1)NC(=O)[C@H](CCC(=O)O)NC(=O)[C@H](CO)NC(=O)[C@@H](NC(=O)[C@H](C)N)C(C)C)C(=O)N[C@@H](CCC(N)=O)C(=O)N[C@@H](CO)C(=O)N[C@@H](CCSC)C(=O)N[C@@H](CCC(=O)O)C(=O)N[C@@H](CCCNC(=N)N)C(=O)N[C@H](C(=O)N[C@@H](CCC(=O)O)C(=O)N[C@@H](Cc1c[nH]c2ccccc12)C(=O)N[C@@H](CC(C)C)C(=O)N[C@@H](CCCNC(=N)N)C(=O)N[C@@H](CCCCN)C(=O)N[C@@H](CCCCN)C(=O)N[C@@H](CC(C)C)C(=O)N[C@@H](CCC(N)=O)C(=O)N[C@@H](CC(=O)O)C(=O)N[C@H](C(=O)N[C@@H](Cc1c[nH]cn1)C(=O)N[C@@H](CC(N)=O)C(=O)N[C@@H](Cc1ccccc1)C(=O)N[C@@H](CCCCNC(=O)c1ccc2c(c1)C1(OC2=O)c2ccc(N(C)C)cc2Oc2cc(N(C)C)ccc21)C(N)=O)C(C)C)C(C)C | PTH1R | cAMP formation, agonist, GloSensor | HEK293 GP2.3 | 15 min | EC50 | 0.00048 ± 0.0002 µM
Cn1cnc(C[C@H](NC(=O)c2cnccn2)C(=O)N2CCC[C@H]2C(N)=O)c1 | Thyrotropin-releasing hormone receptor | calcium signal, agonist, fluorescence | – | – | EC50 | 0.414 µM
Cn1c(=O)oc2ccc(-c3ccc(CC(C#N)NC(=O)C4CNCCCO4)c(F)c3)cc21 (stereo not drawn) | – | – | human | oral, 20 mg once daily, treatment-related AE, multiple ascending dose | skin exfoliation incidence | 11.1%
O=C(O)c1ccc(-c2nc(-c3cccc(C(F)(F)F)c3)cs2)cc1 | RARA | – | – | – | EC50 | 0.021 µM
COc1cccc(C2=Nn3c(nnc3-c3ccccc3OC)SC2)c1 | CXCR4 (Homo sapiens, UniProt P61073) | β-arrestin recruitment, agonist | – | – | EC50 | 10.7 µM
COc1cc(CNC(=O)C[C@H](C)CCC=C(C)C)ccc1OCc1cn(-c2cccc([N+](=O)[O-])c2)nn1 | KM12 | SRB | – | 10 µM, 48 h | growth percent | 91.3%
Cc1cc(-c2ccc(NC(=O)[C@H](CCCCNC(=O)CCOCCOCCC(=O)N[C@H](Cc3ccccc3)C(=O)N[C@H]3CSSC[C@@H](C(=O)N[C@H](C(=O)O)[C@@H](C)O)NC(=O)[C@H]([C@@H](C)O)NC(=O)[C@H](CCCCN)NC(=O)[C@@H](Cc4c[nH]c5ccccc45)NC(=O)[C@H](Cc4ccc(O)cc4)NC3=O)NC(=O)CN3CCN(CC(=O)O)CCN(CC(=O)O)CCN(CC(=O)O)CC3)c(C)c2)ccc1N=Nc1ccc2c(S(=O)(=O)O)cc(S(=O)(=O)O)c(N)c2c1O [lutetium-177 labelled] | – | – | human metastatic neuroendocrine tumour | dose not given | grade 1 vomiting incidence | 8%
CN(C(=O)c1ccc(F)cc1Cl)c1ccc(C(O)(C(F)(F)F)C(F)(F)F)cc1 | NR1H2 ligand-binding domain | agonist | – | concentration not given | EC50 | 4 ± 0.1 µM
[64Cu+2].c1cnc(CNCc2ccc(CN3CCCN4CCNCCCN(CC4)CC3)cc2)nc1 | CXCR4 | – | NOD/SCID mouse, U87 and U87-stb-CXCR4 xenografts, spleen | iv, 30 min, ex vivo | tissue uptake | 15.1 ± 0.92 %ID/g
N=C(N)NCCC[C@@H](NC(=O)[C@H](Cc1c[nH]cn1)NC(=O)[C@H](CO)NC(=O)[C@H](Cc1c[nH]c2ccccc12)NC(=O)[C@H](Cc1c[nH]cn1)NC(=O)[C@@H]1CCC(=O)N1)C(=O)N[C@@H](Cc1c[nH]c2ccccc12)C(=O)N[C@@H](Cc1ccc(O)cc1)C(=O)N1CCC[C@H]1C(=O)NCC(N)=O | Gonadotropin-releasing hormone receptor (Rattus norvegicus, UniProt P30969) | inositol phosphate accumulation, agonist | WPE-1-NB26-3 expressing Gonadotropin-releasing hormone receptor | 60 min, 37 °C, together with: 10 mM LiCl | EC50 | 0.0009 ± 0.0002 µM
O=C([O-])CN1CCN(CC(=O)[O-])CCN(CC(=O)NCCc2ccc3c(c2)C2C=CCC2C(c2cc4c(cc2Br)OCO4)N3)CCN(CC(=O)[O-])CC1.[111In+3] (stereo not drawn) | Hec50 tumour model | – | host not given, blood | 1 h, tumour-bearing | tracer uptake | 2.22 %ID/g
C/C=C(/C)C(=O)O | FFAR3 | agonist | – | – | EC50 | > 10000 µM
C[C@@H]1NC(=O)[C@H](CC(N)=O)NC(=O)[C@H](Cc2c[nH]c3ccccc23)NC(=O)[C@H](CCCNC(=N)N)NC(=O)[C@@H](Cc2ccccc2)NC(=O)[C@H](Cc2c[nH]cn2)NC(=O)[C@@H](NC(=O)[C@@H](N)Cc2ccc(O)cc2)Cn2cc(nn2)C[C@@H](C(=O)N[C@@H](Cc2ccc(O)cc2)C(N)=O)NC(=O)[C@H](Cc2ccccc2)NC1=O | Melanocortin receptor 5 (Mus musculus, UniProt P41149) | agonist | – | – | EC50 | 0.016 ± 0.00066 µM
C=CC(=O)Nc1cc(Nc2nccc(-c3cn(C)c4ccccc34)n2)c(OCC(F)(F)F)nc1N(C)CCN(C)C | CYP2C19 (Homo sapiens, UniProt P33261) | enzyme activity, inhibitor | human, liver microsomes | 1 µM | activity vs control | 109%
CN(C(=O)C1(c2ccccc2)CCCC1)c1ccc(C(O)(C(F)(F)F)C(F)(F)F)cc1 | NR1H2 ligand-binding domain | agonist | – | concentration not given | EC50 | > 10 µM
CCCC[C@H](NC(=O)CCCCCCCNC(=O)CN1CCN(CC(=O)O)CCN(CC(=O)O)CC1)C(=O)N[C@H]1CC(=O)NCCCC[C@@H](C(N)=O)NC(=O)[C@H](Cc2c[nH]c3ccccc23)NC(=O)[C@H](CCCNC(=N)N)NC(=O)[C@@H](Cc2ccccc2)NC(=O)[C@H](Cc2c[nH]cn2)NC1=O [copper-64 labelled] | – | – | C57 mice, intestine | intravenous, 0.37 MBq, 0.5 h | tissue uptake | 2.12 ± 0.45 %ID
C#CC(=O)O | FFAR3 | agonist | – | – | EC50 | > 1000 µM
N=C(N)NCCC[C@H](NC(=O)[C@H](Cc1ccccc1)NC(=O)[C@@H](N)CO)C(=O)N[C@@H](CC(N)=O)C(N)=O | NPSR1 (Homo sapiens, UniProt Q6W5P4, N107I) | calcium signal, agonist, fluorescence | – | – | EC50 | 0.00243 µM
CC1(C)CCC(C)(C)c2cc(/C(=N\O)c3cc4cc(C(=O)O)ccc4[nH]3)ccc21 | RARA | reporter gene, agonist, luciferase | – | – | EC50 | > 5 µM
O=C(O)/C=C/c1cccc(NC(=O)c2cc(-c3cccc(F)c3)ccc2F)c1 | PTGIR (Homo sapiens, UniProt P43119) | calcium signal, agonist, fluorescence | – | – | EC50 | > 10 µM
COc1cc(-c2cnc3nc2NCCCNS(=O)(=O)c2cc(ccc2OC)N3)ccc1F | EPHA4 (Homo sapiens, UniProt P54764) | target engagement in cells, BRET | – | – | EC50 | 0.037 µM
CCCC[C@H](NC(=O)[C@H](CO)NC(=O)[C@H](CC(N)=O)NC(=O)[C@H](CC(C)C)NC(=O)[C@H](Cc1c[nH]cn1)NC(=O)[C@H](CCCCN)NC(=O)CNC(=O)[C@H](CC(C)C)NC(=O)[C@H](CC(N)=O)NC(=O)[C@H](Cc1c[nH]cn1)NC(=O)[C@H](CCCC)NC(=O)[C@H](CC(C)C)NC(=O)[C@H](CCC(N)=O)NC(=O)[C@@H](NC(=O)[C@H](CCC(=O)O)NC(=O)[C@H](CO)NC(=O)[C@@H](NC(=O)[C@@H](N)CO)C(C)C)[C@@H](C)CC)C(=O)N[C@@H](CCC(=O)O)C(=O)N[C@@H](CCCNC(=N)N)C(=O)N[C@H](C(=O)N[C@@H](CCC(=O)O)C(=O)N[C@@H](Cc1c[nH]c2ccccc12)C(=O)N[C@@H](CC(C)C)C(=O)N[C@@H](CCCNC(=N)N)C(=O)N[C@@H](CCCCN)C(=O)N[C@@H](CCCCN)C(=O)N[C@@H](CC(C)C)C(=O)N[C@@H](CCC(N)=O)C(=O)N[C@@H](CC(=O)O)C(=O)N[C@H](C(=O)N[C@@H](Cc1c[nH]cn1)C(=O)N[C@@H](CC(N)=O)C(=O)N[C@@H](Cc1ccccc1)C(=O)N[C@H](C(=O)N[C@@H](C)C(=O)N[C@@H](CC(C)C)C(=O)O)C(C)C)C(C)C)C(C)C | PTH1R | cAMP, agonist | – | – | EC50 | 0.000209 µM
C=C(C)C(=O)O | FFAR3 | agonist | – | – | EC50 | 269 µM
[64Cu+2].c1ccc(CNCc2ccc(CN3CCCN4CCNCCCN(CC4)CC3)cc2)nc1 | CXCR4 | – | NOD/SCID mouse, U87 and U87-stb-CXCR4 xenografts, stomach | iv, 480 min, ex vivo | tissue uptake | 1.91 ± 0.23 %ID/g

Repeated from above:
SMILES | target or system | assay | test system | setting | endpoint | result
C=C(C)C(=O)O | FFAR3 | agonist | – | – | EC50 | 269 µM
[64Cu+2].c1ccc(CNCc2ccc(CN3CCCN4CCNCCCN(CC4)CC3)cc2)nc1 | CXCR4 | – | NOD/SCID mouse, U87 and U87-stb-CXCR4 xenografts, stomach | iv, 480 min, ex vivo | tissue uptake | 1.91 ± 0.23 %ID/g
